Assay results of several laboratories.
Each numbered part is a random draw from the data of one study; scales do not carry over between parts.

Study 1
Target: RNA binding protein fox-1 homolog 2, RRM domain, GST-SBP tag (RBFOX2, Homo sapiens, UniProt O43251-10, residues 100-194)
Technique: RNA Bind-n-Seq
Form: RNA
Sample: in vitro
Concentration: 365 nM
Notes: natural RNA segment, single round, ends assumed
Baseline: no-protein control
Direction: higher = stronger binding
Measurement: RBNS enrichment (R)
Construct (chain): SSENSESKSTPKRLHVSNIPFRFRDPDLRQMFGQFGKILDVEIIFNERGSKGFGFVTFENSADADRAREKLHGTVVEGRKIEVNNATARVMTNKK
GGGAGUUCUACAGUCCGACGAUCUCCUGUUAACCAAAUGGUUACUGCACUACCAGGGUUACUGGUUUAUUUUCCAGGGAGCUGAUAAAGCAGGAGAACUGUUGCUGCAUGUUUUCUAUUUGGACUCCGUCACAUGGAAUUCUCGGGUGCCAA: 1.71
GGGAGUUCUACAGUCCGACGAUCAUUACAAUUUUGGAUGCUAAAAAGUAACUUUCUAGUUAACCCUAAAGUCCUGUCAGAUUGUGAAGAAAUGUUCCAGGAUACACUUGGAUUAGUUAUGCAGUAUUUCUUAUUGGAAUUCUCGGGUGCCAA: 0.504
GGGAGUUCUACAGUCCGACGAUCCGAGAAACGGCUCUUCCUGCCUGGAUGCAGGAGGGCAGGGGCCACCACAGAUUAAAGCUGUUACUGCACACGCAGAGGCCGGCUUCUUCCUCCAGGGGGGCCACAGGGUGUGGAAUUCUCGGGUGCCAA: 0.309
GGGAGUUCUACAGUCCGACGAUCACACUUGUUAGUCUCUGUGAGCCCAGGCCUGAGCUGGGGGAAAGUAGGAAGAUUUGGGCAUAUAUGCUCUCUAUUGGUUCCUUCCAUAUUAAACAUACCUGUGUUUUGAGUGGAAUUCUCGGGUGCCAA: 0.442
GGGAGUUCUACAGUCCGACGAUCUAGAUGAAUAGUUGAGGCACAUCCUUCAGAGAAGAGGGAGGGGCUGCUUGGAAAGAUGGCUCUCAGCAAAAUCUGUUUGUCUUACACGUCUCUCAGGGAAAAAACAUGCAUGGAAUUCUCGGGUGCCAA: 14
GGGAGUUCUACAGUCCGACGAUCCUGCUGUCAGAGUGGGAGCAGACUCAUCAGCCUUGGCAGAGAAAGAGUGCCCUUCAGGCUGUCAGGUCACGAGCUCCGAGCUGCCCUUAGUCCUUGUCAGCCUCACAGAGUGGAAUUCUCGGGUGCCAA: 0.314
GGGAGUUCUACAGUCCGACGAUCAUUGGGGGACACGGUGGCCACUCGCGGUCUGUGUCAUGACACUUCCCAUUCACAUCAUUGGCCUGCGUUGCUGGGGCUUUGAACCACCACCCCGUACUUUGUUUUGCCUGUGGAAUUCUCGGGUGCCAA: 0.821
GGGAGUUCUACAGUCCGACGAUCCCACAGACACUCAACGCCAGCCUGUAAAAGCAACCGAGAAGUAGGCUGUACCCUGCAAUGCCAUAGGGGUGGAGCUGCCCAAGACCAUGGGAACCCACCUCCUGCAUCAGUGGAAUUCUCGGGUGCCAA: 0.982
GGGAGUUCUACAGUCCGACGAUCGCAUCACAUAUACUAAGCAUGUGCUCUACCAUCAUGCUAUGCUUCCAGCUCAGGGGGGCACUUUUAAGGAUCUAGAAAACAGAAAUUAAGGAUCUCAUAGUUAUUUUAUUUGGAAUUCUCGGGUGCCAA: 1.44
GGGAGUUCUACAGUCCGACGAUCCCUCUCCUGUCCCCUUCUGUGUGCACAUAGGUCCAUAGGCUCAUUAGAGGGAUGAGAGUUCCCAUUAAGCACUCCAUGCAAUGGCCUCUCACUGUUUAAAGAACACACUUUGGAAUUCUCGGGUGCCAA: 0.297
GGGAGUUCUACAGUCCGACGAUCAAAGCUUUUAAAUCUUGCCUUCUUUCUUCUGUACUUUGUCUUUUUAAAAUCUCAUUACUAUCUAUUAUUUAGUUCUAACACAGAAGCUUUAAAAAUACAUAGUCAUCCAAUGGAAUUCUCGGGUGCCAA: 0.43
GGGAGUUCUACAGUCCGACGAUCAAACAGGCCUCAUUGCGUAAUUCCUUUGCCCUGAAAAGUGUCACCACCUUUAUAUUUUUACCCCAGCCUUGGAGUUAUCUUUUUCUGCUCUCCAUUCUCCAUGUCCAAAAUGGAAUUCUCGGGUGCCAA: 0.931

Study 2
Target: Centromere-binding protein 1, full length, N-terminal tag (CBF1, Saccharomyces cerevisiae, UniProt P17106, residues 1-351)
UniProt P17106, sequence (whole entry, looked up): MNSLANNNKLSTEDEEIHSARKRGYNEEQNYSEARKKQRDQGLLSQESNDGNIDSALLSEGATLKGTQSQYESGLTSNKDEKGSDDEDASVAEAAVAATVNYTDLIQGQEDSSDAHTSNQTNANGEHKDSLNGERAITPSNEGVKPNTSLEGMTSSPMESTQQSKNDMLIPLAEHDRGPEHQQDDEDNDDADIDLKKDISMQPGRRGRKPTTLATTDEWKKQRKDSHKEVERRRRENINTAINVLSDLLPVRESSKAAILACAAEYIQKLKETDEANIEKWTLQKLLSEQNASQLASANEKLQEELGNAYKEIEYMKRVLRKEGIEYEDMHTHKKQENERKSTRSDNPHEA
Technique: protein-binding microarray
Form: double-stranded DNA, one strand shown
Sample: in vitro
Concentration: 0.8 µM
Notes: whole 60-bp probe, no competitor
Direction: higher = stronger binding
Measurement: fluorescence intensity
CTATGTACAGGGCCGCACATGATCACTATAACATTCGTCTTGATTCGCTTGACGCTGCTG: 2340 a.u.
CTAGTTCTTTGCGAGCATGTGCTATACAGTCTTTTCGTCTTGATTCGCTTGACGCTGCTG: 910 a.u.
CTATTTAATATATTTCTCATGATAGCTCCATAATTCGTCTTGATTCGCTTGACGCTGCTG: 502 a.u.
GAACTTAGCTAATGCCACGTCAGAAAAATACACTAGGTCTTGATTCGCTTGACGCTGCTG: 560 a.u.
CTAACTTCAACACGCCACCTGGTCTTGGGGTAATTCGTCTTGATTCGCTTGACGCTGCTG: 787 a.u.
GAATGCAGTGCCTTTCACGTAATCTCAAGAGCCTAGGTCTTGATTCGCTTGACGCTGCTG: 505 a.u.
CTATATACTTTCTAACTGATGATGAATATGAAATTCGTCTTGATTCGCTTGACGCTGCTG: 546 a.u.
GAACGGATATTGAATCACATGGGATTTCAGATTTAGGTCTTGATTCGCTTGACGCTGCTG: 1570 a.u.
CTAATTCTCATTTTTAACGTGTCTTTTCTTCAATTCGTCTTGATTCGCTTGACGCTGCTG: 548 a.u.
GAAAAAGGCGGGGCAAACGTGATGGCGCTTGCTTAGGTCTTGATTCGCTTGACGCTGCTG: 611 a.u.
CTATTTGGCGAGTGACATGTGAAAACTTTGCCTTTCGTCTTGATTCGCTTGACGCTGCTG: 699 a.u.
GAACATAATGGCCGGCATGTGAAATCGCGGCTTTAGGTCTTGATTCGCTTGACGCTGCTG: 528 a.u.
CTATTTCTTCTGTGTCACACGTTGTGCTTGCCATTCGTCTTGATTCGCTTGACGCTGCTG: 643 a.u.
CCTAACTACTATAGTGATCTCAGATAGCTTCGTACAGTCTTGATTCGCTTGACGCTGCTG: 556 a.u.
CTAGCCGTTCAATGTCACGTGACACAAAGTTGTTTCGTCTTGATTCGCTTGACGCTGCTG: 51400 a.u.
CTACCCAATAAACGTGGTACTTGTCGAGTAGTCTTCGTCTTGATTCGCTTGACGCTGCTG: 552 a.u.
CTATGGTTTCTCCATCACCCATTTTTCATTTCATTCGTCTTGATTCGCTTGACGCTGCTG: 993 a.u.
CTAGTCGGTTCATTGCATGTGCTGTTACACTTCTTCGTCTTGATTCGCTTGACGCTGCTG: 621 a.u.

Study 3
Target: Fragile X messenger ribonucleoprotein 1, C-terminal low-complexity region (Fmr1, Mus musculus, UniProt P35922)
Technique: RNA Bind-n-Seq
Form: RNA
Sample: in vitro
Concentration: 200 nM
Notes: whole 134-nt RNA, ends assumed
With: 150 mM LiCl
Baseline: input library
Direction: higher = stronger binding
Measurement: log2 enrichment
Library: 7-deaza-guanosine replaces G
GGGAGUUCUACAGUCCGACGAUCUCAAGUCCUGUGCUACACAUCGUAUGUACCGAAUCGGUUUUUGGAAAAAGGUGGAAAGUAUUAUGUUACGCCGUUCGGAUCUGCACUUCCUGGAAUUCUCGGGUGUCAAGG: -1.05
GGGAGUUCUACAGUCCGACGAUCCUCAAGUCCUGUGCUACACAUCGUAUGUACCGAAUCGGGAAGGGAAGGGGAAGGAAAGUAUUAUGUUACGCCGUUCGGAUCUGCACUUCCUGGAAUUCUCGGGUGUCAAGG: -0.559
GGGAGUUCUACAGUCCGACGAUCCACAGACAACACGCACCCACACAGACACAGAGGGAAGGGGUUGGGAUGGGGACAGGGUGCACAGCAGUGCGGGGUAGGACCCCAGCCCCUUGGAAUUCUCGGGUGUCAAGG: -0.265
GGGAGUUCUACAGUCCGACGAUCCAAGUCCUGUGCUACACAUCGUAUGUACCGAAUCGGUUUGGUUUGGGGUUUGGGGAAAGUAUUAUGUUACGCCGUUCGGAUCUGCACUUCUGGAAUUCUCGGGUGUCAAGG: -1.46
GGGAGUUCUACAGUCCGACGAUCCACAGACAACACGCACCCACCCAGACACAGAGGGAAGGGGUUGGGAUGGGGACAGGGUGCACAGCAGGGCGGGGUAGGACCCCAGCCCCUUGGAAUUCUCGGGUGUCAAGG: -1.07
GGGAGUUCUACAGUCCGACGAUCUGGGAGGUGGAUUUUGUUUCUUUUUUUAGCUCAUUUCCAGGGGUGGGAAUUUUUUUUUAAUAUGUGUCAUGAAUAAAGUUGUUUUUGAAAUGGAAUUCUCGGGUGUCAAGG: 0.739
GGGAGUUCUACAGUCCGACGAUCUGGCCCUGGUGGCAUGCGGGGAGGAAGAGGUGGCCUCAUGGAUCGUGGUGGUCCCGGUAGAAUGUUCAGAGGUGGCCGUGGUGGAGACAGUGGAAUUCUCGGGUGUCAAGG: 0.176
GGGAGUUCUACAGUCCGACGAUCCUGUGCUACACAUCGUAUGUACCGAAUCAAACCCCCCCAAAUUUUUUUAAACCCCCCCAAAAAAGUAUUAUGUUACGCCGUUCGGAUCUGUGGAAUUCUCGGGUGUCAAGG: 1.29
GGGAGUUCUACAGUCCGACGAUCUGGCCCUGGUGGCAUGCGGGGAGGAAGAGGUGGCCUCAUGGAUCGUGGUGGUCCGGGUGGAAUGUUCAGAGGUGGCCGUGGUGGAGACAGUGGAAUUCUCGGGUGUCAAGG: -0.138
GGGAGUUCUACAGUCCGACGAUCAGUCCUGUGCUACACAUCGUAUGUACCGAAUCGGGGCCCCCGGCCCCCGGGCCCCCGGAAAGUAUUAUGUUACGCCGUUCGGAUCUGCACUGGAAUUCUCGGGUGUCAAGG: -2.89
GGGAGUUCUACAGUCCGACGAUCUGUGCUACACAUCGUAUGUACCGAAUCGGGGAAAAAGGGGUUUUUUUGGGGUUUUUUUGGGGAAAGUAUUAUGUUACGCCGUUCGGAUCUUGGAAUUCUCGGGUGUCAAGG: -1.68

Study 4
Target: Prothrombin, mature alpha-thrombin (F2, Homo sapiens, UniProt P00734)
Technique: aptamer microarray, sandwich
Form: DNA with 2'F-ANA
Sample: in vitro
Concentration: 200 nM
Notes: whole 15-mer aptamer, many near background
With: Cy3 exosite-II aptamer, 400 nM
Direction: higher = stronger binding
Measurement: mean fluorescence intensity
Strand: GGTTGGTGTGGTTGG
2'F-ANA at 1 2 3 4 5 6 9 11 13 14 15: 51 a.u.
2'F-ANA at 1 3 5 6 7 10 12 15: 49.5 a.u.
2'F-ANA at 1 3 5 8 11 13 14 15: 67.9 a.u.
2'F-ANA at 2 5 6 7 9 10 11 12 13: 53.3 a.u.
2'F-ANA at 2 3 9 10 13: 324 a.u.
2'F-ANA at 1 2 3 4 6 7 9 11 13 14: 54.2 a.u.
2'F-ANA at 1 4 5 6 7 11 12 13 14: 43.9 a.u.
2'F-ANA at 1 2 5 6 8 10 12 14: 47.8 a.u.
2'F-ANA at 1 2 3 7 8 10 12 13 14: 53.6 a.u.
2'F-ANA at 1 3 5 7 8 10 11 13 14 15: 50.3 a.u.
2'F-ANA at 2 3 5 6 7 10 11: 51.4 a.u.
2'F-ANA at 4 5 6 7 9 10 11 12 14: 60.5 a.u.
2'F-ANA at 1 2 3 6 10 14: 55.9 a.u.
2'F-ANA at 1 2 3 5 7 8 11 12 13 15: 77.8 a.u.
2'F-ANA at 2 3 4 8 9 12: 898 a.u.
2'F-ANA at 2 8 10 11 12 13: 145 a.u.
2'F-ANA at 3 5 6 7 11 13 14: 52 a.u.
2'F-ANA at 3 5 8 9 14 15: 63.5 a.u.
2'F-ANA at 2 7 8 9 10 15: 139 a.u.
2'F-ANA at 1 2 3 4 6 9 10 11 14: 54.3 a.u.
2'F-ANA at 2 3 5 8 11 15: 96.3 a.u.
2'F-ANA at 3 4 7 8 9 14: 364 a.u.
2'F-ANA at 1 4 6 8 9 10 12 13 14 15: 52.3 a.u.
2'F-ANA at 1 2 4 6 7 9 10 11 12 13 14: 50.3 a.u.
2'F-ANA at 1 5 8 9 12 14 15: 51.7 a.u.
